Experimental data from different studies.
Each numbered part is a random draw from the data of one study; scales do not carry over between parts.
Sequence of UniProt Q9H4A3 (whole entry, looked up): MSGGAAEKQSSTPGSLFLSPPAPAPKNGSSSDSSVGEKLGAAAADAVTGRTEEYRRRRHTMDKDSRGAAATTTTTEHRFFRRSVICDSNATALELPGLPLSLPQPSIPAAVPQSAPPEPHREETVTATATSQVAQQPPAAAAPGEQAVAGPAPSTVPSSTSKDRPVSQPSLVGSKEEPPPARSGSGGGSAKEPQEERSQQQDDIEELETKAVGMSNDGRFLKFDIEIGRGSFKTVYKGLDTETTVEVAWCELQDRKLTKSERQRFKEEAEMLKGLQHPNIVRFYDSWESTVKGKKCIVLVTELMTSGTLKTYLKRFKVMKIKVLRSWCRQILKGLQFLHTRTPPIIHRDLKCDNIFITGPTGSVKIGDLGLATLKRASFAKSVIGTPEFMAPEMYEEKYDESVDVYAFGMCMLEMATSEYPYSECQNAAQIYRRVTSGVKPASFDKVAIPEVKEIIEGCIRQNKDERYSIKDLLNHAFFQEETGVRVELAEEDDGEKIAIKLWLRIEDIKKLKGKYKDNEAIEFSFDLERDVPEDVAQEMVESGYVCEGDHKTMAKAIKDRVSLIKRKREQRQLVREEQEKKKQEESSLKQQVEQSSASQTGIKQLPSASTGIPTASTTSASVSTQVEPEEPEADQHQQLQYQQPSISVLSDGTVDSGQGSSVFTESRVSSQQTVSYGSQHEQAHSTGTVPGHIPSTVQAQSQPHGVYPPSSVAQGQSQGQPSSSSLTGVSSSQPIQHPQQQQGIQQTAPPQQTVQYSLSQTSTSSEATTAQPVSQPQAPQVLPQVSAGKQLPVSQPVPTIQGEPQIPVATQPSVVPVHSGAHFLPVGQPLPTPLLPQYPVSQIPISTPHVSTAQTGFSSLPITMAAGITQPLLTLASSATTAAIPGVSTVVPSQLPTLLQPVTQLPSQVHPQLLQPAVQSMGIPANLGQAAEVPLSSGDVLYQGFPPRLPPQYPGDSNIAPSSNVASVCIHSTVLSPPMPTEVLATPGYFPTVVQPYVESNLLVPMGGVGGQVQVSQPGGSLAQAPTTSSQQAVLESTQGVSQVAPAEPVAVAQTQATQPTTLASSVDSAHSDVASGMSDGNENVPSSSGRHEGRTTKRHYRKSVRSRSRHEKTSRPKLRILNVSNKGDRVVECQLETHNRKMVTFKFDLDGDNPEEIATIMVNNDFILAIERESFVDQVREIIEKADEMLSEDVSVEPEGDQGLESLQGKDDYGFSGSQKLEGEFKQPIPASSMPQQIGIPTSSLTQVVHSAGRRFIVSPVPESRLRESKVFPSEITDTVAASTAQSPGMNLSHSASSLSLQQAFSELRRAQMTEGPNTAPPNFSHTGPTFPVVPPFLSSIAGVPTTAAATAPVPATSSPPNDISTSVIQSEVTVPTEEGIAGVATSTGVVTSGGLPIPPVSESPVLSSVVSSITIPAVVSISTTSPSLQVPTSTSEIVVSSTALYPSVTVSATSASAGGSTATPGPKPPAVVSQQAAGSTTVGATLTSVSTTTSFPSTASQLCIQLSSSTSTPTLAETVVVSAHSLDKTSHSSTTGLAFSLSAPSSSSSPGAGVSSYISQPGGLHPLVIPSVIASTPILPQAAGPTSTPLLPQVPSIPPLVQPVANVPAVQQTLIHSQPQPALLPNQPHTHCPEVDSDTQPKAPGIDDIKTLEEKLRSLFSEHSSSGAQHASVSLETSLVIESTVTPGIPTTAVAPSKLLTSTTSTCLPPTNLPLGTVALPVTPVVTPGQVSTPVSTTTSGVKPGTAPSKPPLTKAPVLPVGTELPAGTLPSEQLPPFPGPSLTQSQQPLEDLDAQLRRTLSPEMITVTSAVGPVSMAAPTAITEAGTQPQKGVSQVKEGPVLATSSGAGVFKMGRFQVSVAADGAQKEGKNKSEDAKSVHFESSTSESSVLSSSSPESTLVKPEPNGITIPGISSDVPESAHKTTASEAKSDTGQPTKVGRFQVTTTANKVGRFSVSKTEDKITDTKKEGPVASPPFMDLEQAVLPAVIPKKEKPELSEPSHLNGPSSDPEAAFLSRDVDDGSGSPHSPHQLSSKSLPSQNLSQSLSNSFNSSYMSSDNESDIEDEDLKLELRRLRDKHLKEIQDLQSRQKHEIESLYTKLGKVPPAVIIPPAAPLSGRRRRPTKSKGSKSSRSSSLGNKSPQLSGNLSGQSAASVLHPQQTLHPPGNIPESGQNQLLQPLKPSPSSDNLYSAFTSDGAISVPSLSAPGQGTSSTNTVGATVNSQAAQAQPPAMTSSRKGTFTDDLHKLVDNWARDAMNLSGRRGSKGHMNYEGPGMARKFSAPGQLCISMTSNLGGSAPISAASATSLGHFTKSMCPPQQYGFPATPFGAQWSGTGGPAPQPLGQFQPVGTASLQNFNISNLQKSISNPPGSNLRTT
Sequence of UniProt P10721 (whole entry, unmodified, looked up): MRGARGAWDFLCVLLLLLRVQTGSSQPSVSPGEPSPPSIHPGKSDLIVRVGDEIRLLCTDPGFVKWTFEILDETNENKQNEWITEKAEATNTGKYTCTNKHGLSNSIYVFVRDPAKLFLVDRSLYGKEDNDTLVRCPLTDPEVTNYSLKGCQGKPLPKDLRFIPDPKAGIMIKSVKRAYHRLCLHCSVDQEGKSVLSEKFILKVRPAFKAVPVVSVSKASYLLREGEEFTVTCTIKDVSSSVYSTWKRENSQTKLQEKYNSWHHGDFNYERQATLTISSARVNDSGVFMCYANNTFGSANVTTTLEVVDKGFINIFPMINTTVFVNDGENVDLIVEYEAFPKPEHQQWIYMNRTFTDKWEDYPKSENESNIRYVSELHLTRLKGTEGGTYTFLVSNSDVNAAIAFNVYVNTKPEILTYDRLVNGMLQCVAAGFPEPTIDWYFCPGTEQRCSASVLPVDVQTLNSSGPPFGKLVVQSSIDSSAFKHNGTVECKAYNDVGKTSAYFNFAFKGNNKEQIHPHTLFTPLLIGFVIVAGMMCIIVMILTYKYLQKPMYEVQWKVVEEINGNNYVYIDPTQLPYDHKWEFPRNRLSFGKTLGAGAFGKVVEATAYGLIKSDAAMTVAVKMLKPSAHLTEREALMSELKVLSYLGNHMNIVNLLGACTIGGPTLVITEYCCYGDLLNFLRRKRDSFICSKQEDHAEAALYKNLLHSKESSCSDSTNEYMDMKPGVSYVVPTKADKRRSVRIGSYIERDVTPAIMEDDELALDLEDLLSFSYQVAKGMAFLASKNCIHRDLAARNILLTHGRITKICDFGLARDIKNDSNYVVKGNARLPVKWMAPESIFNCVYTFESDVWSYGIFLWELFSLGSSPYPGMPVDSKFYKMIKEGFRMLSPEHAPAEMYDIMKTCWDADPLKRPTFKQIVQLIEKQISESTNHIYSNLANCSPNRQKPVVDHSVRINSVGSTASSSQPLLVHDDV
Sequence of UniProt P49759 (whole entry, looked up): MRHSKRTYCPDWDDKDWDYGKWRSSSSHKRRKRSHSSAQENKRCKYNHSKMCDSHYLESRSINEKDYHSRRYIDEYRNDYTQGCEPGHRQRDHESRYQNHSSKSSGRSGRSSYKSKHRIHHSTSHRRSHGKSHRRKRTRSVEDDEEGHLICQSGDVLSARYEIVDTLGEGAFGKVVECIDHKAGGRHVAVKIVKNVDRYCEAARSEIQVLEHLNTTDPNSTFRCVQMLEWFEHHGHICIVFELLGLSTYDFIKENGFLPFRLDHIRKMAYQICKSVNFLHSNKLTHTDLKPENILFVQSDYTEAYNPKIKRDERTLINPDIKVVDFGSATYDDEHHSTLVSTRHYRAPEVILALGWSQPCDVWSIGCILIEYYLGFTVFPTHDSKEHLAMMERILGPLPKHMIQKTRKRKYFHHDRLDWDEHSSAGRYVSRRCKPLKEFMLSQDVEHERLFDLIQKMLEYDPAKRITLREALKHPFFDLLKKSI
Sequence of UniProt Q16288 (whole entry, looked up): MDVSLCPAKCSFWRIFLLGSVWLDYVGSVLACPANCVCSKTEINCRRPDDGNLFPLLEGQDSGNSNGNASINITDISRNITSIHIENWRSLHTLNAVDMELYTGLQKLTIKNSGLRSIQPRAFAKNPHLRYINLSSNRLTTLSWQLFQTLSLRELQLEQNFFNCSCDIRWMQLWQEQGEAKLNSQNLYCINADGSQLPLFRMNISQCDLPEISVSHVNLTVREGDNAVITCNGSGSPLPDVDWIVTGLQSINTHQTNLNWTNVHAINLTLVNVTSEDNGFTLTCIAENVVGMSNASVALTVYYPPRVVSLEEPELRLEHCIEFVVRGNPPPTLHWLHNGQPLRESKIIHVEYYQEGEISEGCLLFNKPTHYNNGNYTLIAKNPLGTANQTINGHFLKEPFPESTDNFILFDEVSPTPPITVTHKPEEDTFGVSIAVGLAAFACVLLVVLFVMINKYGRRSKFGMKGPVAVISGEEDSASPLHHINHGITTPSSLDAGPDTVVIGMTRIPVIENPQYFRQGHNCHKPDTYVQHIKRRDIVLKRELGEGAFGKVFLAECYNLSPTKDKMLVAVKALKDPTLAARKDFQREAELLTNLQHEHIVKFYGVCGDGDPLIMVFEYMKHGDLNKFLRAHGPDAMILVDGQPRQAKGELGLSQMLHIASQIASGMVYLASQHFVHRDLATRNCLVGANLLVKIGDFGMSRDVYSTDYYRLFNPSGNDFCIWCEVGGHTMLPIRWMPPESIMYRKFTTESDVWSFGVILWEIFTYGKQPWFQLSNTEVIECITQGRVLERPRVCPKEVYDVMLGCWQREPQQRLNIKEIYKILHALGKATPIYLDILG
Sequence of UniProt O75716 (whole entry, looked up): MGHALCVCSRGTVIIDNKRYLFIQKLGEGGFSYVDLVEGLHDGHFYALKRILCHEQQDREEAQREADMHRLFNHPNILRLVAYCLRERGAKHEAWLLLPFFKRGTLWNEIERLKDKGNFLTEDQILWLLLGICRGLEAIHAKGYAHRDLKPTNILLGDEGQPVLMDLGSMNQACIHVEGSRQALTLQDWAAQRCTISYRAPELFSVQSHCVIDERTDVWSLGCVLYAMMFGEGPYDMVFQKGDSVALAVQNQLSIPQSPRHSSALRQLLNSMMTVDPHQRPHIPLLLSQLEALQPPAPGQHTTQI

Set 1
Cell line: HEK-293T
Effect on: pseudovirus infection
Method: FDA-approved drug library counter-screen
Organism: VSV pseudotyped with VSV-G
Concentration: 10 µM
Time: 16 h
Baseline: vehicle-treated
The GFP-positive cells of `Cc1nnc(NS(=O)(=O)c2ccc(N)cc2)s1` is reported as 96.5%.
`CCCCCCCC(=O)N[C@H](CN1CCCC1)[C@H](O)c1ccc2c(c1)OCCO2` gave a GFP-positive cells of 124%.
`CN1C(C(=O)Nc2ccccn2)=C(O)c2ccccc2S1(=O)=O` gave a GFP-positive cells of 81.8%.
With `CC(C)NCC(O)COc1cccc2[nH]ccc12` (stereo not drawn) the GFP-positive cells was 84.5%.
With `C[C@]12CC[C@H](O)CC1=CC[C@@H]1[C@@H]2CC[C@]2(C)C(c3cccnc3)=CC[C@@H]12` the GFP-positive cells was 133%.
`CN(C)CCCN1c2ccccc2Sc2ccc(Cl)cc21` has a GFP-positive cells of 95.7%.
The GFP-positive cells of `CCCCC(=O)N(Cc1ccc(-c2ccccc2-c2nnn[nH]2)cc1)[C@H](C(=O)O)C(C)C` is reported as 112%.
With `NC(=O)CC[C@H](N)C(=O)O` the GFP-positive cells was 142%.
For `CC(CCc1ccccc1)NCC(O)c1ccc(O)c(C(N)=O)c1` (stereo not drawn), the GFP-positive cells was 89.8%.
For `CC=CC(=O)N(CC)c1ccccc1C` (mixture of isomers), the GFP-positive cells was 120%.
For `Clc1ccc(CCC(Cn2ccnc2)Sc2c(Cl)cccc2Cl)cc1` (stereo not drawn), the GFP-positive cells was 105%.
`Cc1cnc(C(=O)N[C@H]2CCCCC/C=C\[C@@H]3C[C@@]3(C(=O)NS(=O)(=O)C3CC3)NC(=O)[C@@H]3C[C@@H](Oc4nc5ccccc5c5ccccc45)CN3C2=O)cn1` has a GFP-positive cells of 102%.
`O=C(O)CCCc1ccccc1` gave a GFP-positive cells of 88.7%.
`CCCCC(=O)O[C@]1(C(=O)CO)CC[C@H]2[C@@H]3CCC4=CC(=O)CC[C@]4(C)[C@H]3[C@@H](O)C[C@@]21C` gave a GFP-positive cells of 87.6%.
For `COc1cccc2c1C(=O)c1c(O)c3c(c(O)c1C2=O)C[C@@](O)(C(C)=O)C[C@@H]3O[C@H]1C[C@H](N)[C@H](O)[C@H](C)O1`, the GFP-positive cells was 147%.
For `Cc1c(OCC(F)(F)F)ccnc1C[S+]([O-])c1nc2ccccc2[nH]1` (stereo not drawn), the GFP-positive cells was 115%.
For `CCOC(=O)[C@H](CCc1ccccc1)N[C@H]1CCc2ccccc2N(CC(=O)O)C1=O`, the GFP-positive cells was 104%.
For `C[C@]12CC[C@H]3[C@@H](CC[C@@]45O[C@@H]4C(O)=C(C#N)C[C@]35C)[C@@H]1CC[C@@H]2O`, the GFP-positive cells was 93.8%.
For `COc1cc2nc(N3CCN(C(=O)C4COc5ccccc5O4)CC3)nc(N)c2cc1OC` (stereo not drawn), the GFP-positive cells was 94.5%.
With `O=C(NC1CCN(CCCCC2(C(=O)NCC(F)(F)F)c3ccccc3-c3ccccc32)CC1)c1ccccc1-c1ccc(C(F)(F)F)cc1` the GFP-positive cells was 69%.
For `CCC1=C(C)CN(C(=O)NCCc2ccc(S(=O)(=O)NC(=O)N[C@H]3CC[C@H](C)CC3)cc2)C1=O`, the GFP-positive cells was 105%.
For `NS(=O)(=O)c1cc2c(cc1Cl)NC(C(Cl)Cl)NS2(=O)=O` (stereo not drawn), the GFP-positive cells was 91.5%.
`CC(C)C(=O)Nc1ccc([N+](=O)[O-])c(C(F)(F)F)c1` gave a GFP-positive cells of 94%.
With `Cc1cn[nH]c1` the GFP-positive cells was 108%.
`CN(C)C/C=C/C(=O)Nc1cc2c(Nc3ccc(F)c(Cl)c3)ncnc2cc1O[C@H]1CCOC1` gave a GFP-positive cells of 89.4%.

Set 2
SMILES: N#CC1(c2ccccn2)CCN(Cc2cc(C(=O)O)c(=O)n3ccccc23)CC1
Effect on: cell-free assay
Method: competition with immobilised ligand
Concentration: 1 µM
It gave 80% for remaining binding (Receptor-type tyrosine-protein kinase FLT3, autoinhibited (FLT3, Homo sapiens, UniProt P36888)).
For Serine/threonine-protein kinase WNK1 (WNK1, Homo sapiens, UniProt Q9H4A3): remaining binding read 97%.
It gave 50% for remaining binding (Microtubule-associated serine/threonine-protein kinase 1 (MAST1, Homo sapiens, UniProt Q9Y2H9)).
For Dual specificity protein kinase CLK1 (CLK1, Homo sapiens, UniProt P49759): remaining binding read 80%.
For Phosphatidylinositol 4,5-bisphosphate 3-kinase catalytic subunit alpha isoform (PIK3CA, Homo sapiens, UniProt P42336, E542K): remaining binding read 87%.
The remaining binding was 100% (Cyclin-dependent kinase-like 1 (CDKL1, Homo sapiens, UniProt Q00532)).
For Serine/threonine-protein kinase 16 (STK16, Homo sapiens, UniProt O75716): remaining binding read 100%.
The remaining binding was 83% (Mitogen-activated protein kinase 9 (MAPK9, Homo sapiens, UniProt P45984)).
The remaining binding was 79% (Ephrin type-A receptor 4 (EPHA4, Homo sapiens, UniProt P54764)).
It gave 86% for remaining binding (Ephrin type-A receptor 6 (EPHA6, Homo sapiens, UniProt Q9UF33)).
It gave 88% for remaining binding (High affinity nerve growth factor receptor (NTRK1, Homo sapiens, UniProt P04629)).
It gave 100% for remaining binding (Mitogen-activated protein kinase 6 (MAPK6, Homo sapiens, UniProt Q16659)).
Mast/stem cell growth factor receptor Kit (KIT, Homo sapiens, UniProt P10721, D816H) — remaining binding: 85%.
For Vascular endothelial growth factor receptor 1 (FLT1, Homo sapiens, UniProt P17948): remaining binding read 92%.
It gave 86% for remaining binding (Casein kinase II subunit alpha' (CSNK2A2, Homo sapiens, UniProt P19784)).
It gave 100% for remaining binding (Serine/threonine-protein kinase PAK 3 (PAK3, Homo sapiens, UniProt O75914)).
For Dual specificity mitogen-activated protein kinase kinase 4 (MAP2K4, Homo sapiens, UniProt P45985): remaining binding read 85%.

Set 3
Structure (SMILES): CN1CC[C@]23c4c5ccc(O)c4O[C@H]2[C@@H](O)C=C[C@H]3[C@H]1C5
Species: mouse C57BL/6J male
Baseline: vehicle
The respiration rate was 47% (30 mg/kg, 20 min).
The respiration rate was 87% (10 mg/kg, 60 min).
For 10 mg/kg, 40 min: respiration rate read 80%.
For 10 mg/kg, 80 min: respiration rate read 125%.
It gave 87% for respiration rate (30 mg/kg, 120 min).
It gave 66% for respiration rate (10 mg/kg, 20 min).
30 mg/kg, 80 min — respiration rate: 66%.
It gave 100% for respiration rate (30 mg/kg, 0 min).

Set 4
SMILES: COC[C@H]1OC(=O)c2coc3c2[C@@]1(C)C1=C(C3=O)[C@@H]2CCC(=O)[C@@]2(C)C[C@H]1OC(C)=O
Concentration: 0.5 µM
The remaining activity was 96.9% (Proto-oncogene tyrosine-protein kinase receptor Ret (RET, Homo sapiens, UniProt P07949); enzyme activity, inhibitor; baseline: control).
Calcium/calmodulin-dependent protein kinase type 1G (CAMK1G, Homo sapiens, UniProt Q96NX5); enzyme activity, inhibitor; baseline: control — remaining activity: 96.7%.
It gave 96.8% for remaining activity (Mitogen-activated protein kinase 10 (MAPK10, Homo sapiens, UniProt P53779); enzyme activity, inhibitor; baseline: control).
For Protein-tyrosine kinase 2-beta (PTK2B, Homo sapiens, UniProt Q14289); enzyme activity, inhibitor; baseline: control: remaining activity read 86.3%.
It gave 93.9% for remaining activity (Aurora kinase A (AURKA, Homo sapiens, UniProt O14965); enzyme activity, inhibitor; baseline: control).
Myotonin-protein kinase (DMPK, Homo sapiens, UniProt Q09013); enzyme activity, inhibitor; baseline: control — remaining activity: 98.7%.
It gave 103% for remaining activity (Homeodomain-interacting protein kinase 3 (HIPK3, Homo sapiens, UniProt Q9H422); enzyme activity, inhibitor; baseline: control).
For Calcium/calmodulin-dependent protein kinase type 1D (CAMK1D, Homo sapiens, UniProt Q8IU85); enzyme activity, inhibitor; baseline: control: remaining activity read 95.9%.
It gave 88.2% for remaining activity (Rho-associated protein kinase 2 (ROCK2, Homo sapiens, UniProt O75116); enzyme activity, inhibitor; baseline: control).
The remaining activity was 93.5% (Cyclin-dependent kinase 2, with cyclin A (CDK2, Homo sapiens, UniProt P24941); enzyme activity, inhibitor; baseline: control).
Mitogen-activated protein kinase kinase kinase 8 (MAP3K8, Homo sapiens, UniProt P41279); enzyme activity, inhibitor; baseline: control — remaining activity: 108%.
For NT-3 growth factor receptor (NTRK3, Homo sapiens, UniProt Q16288); enzyme activity, inhibitor; baseline: control: remaining activity read 87.8%.
The remaining activity was 102% (Activated CDC42 kinase 1 (TNK2, Homo sapiens, UniProt Q07912); kinase activity; with: ATP 10 µM; baseline: untreated).

Repeated from above (set 3):
The respiration rate was 87% (10 mg/kg, 60 min).
For 10 mg/kg, 40 min: respiration rate read 80%.
For 10 mg/kg, 80 min: respiration rate read 125%.
It gave 87% for respiration rate (30 mg/kg, 120 min).
It gave 66% for respiration rate (10 mg/kg, 20 min).
